Assay results gathered from unrelated publications.
Compare with care: the assays were run in different laboratories. Numbers after ± are the reported error.

Structure (SMILES) | assay | system | setting | scale | Cmax
CCNCCCNC/C=C\CNCCCNCC | LC-MS/MS | human cancer patients, plasma | intravenous infusion 60 min, 50 mg, median, cycle 1 | – | 91.7 ng/mL
C[C@H](CCC(=O)O)[C@H]1CC[C@H]2[C@@H]3CC[C@@H]4C[C@H](O)CC[C@]4(C)[C@H]3C[C@H](O)[C@]12C | – | human, plasma | oral, dose not given | relative to: untreated | 926 ± 251 nM
O=C(Nc1cnccc1Cl)N1CCN(Cc2ccc3c(c2)OC(F)(F)O3)CC1 | – | human healthy young men, plasma | oral, 25 mg once daily, day 1, multiple dose mean | – | 144 ng/mL
Nc1ccn([C@@H]2O[C@H](CO)[C@@H](O)C2(F)F)c(=O)n1 | HPLC-UV | human, plasma | intravenous, 1000 mg/m^2, median, before paricalcitol | – | 6880 ng/mL
Cc1nc(-c2ccc(OCC(C)C)c(C#N)c2)sc1C(=O)O | – | human | oral, 10 mg once daily, together with: verinurad 0 mg | – | 268 ng/mL
CCn1cc(C(=O)N2CCOCC2)c(=O)c2cc(NC3Cc4ccccc4C3)cnc21 | – | human overall, fed, plasma | oral, 900 mg twice daily, day 7, tablet, arithmetic mean | – | 6800 ng/mL
CCOc1c([C@H](C)n2nc(C)c3c(N)ncnc32)cc(Cl)c(F)c1[C@@H]1CNC(=O)C1 | – | human patients | oral, 45 mg once daily, cycle 1 day 15, monotherapy | – | 5530 ± 3210 nM
Cc1nc(Nc2ncc(C(=O)Nc3c(C)cccc3Cl)s2)cc(N2CCN(CCO)CC2)n1 | – | human patients | oral, 85 mg/m^2, day 42 | – | 124 ± 67 ng/mL
C[C@@H](Cn1ccc(-c2ccc(C#N)c(Cl)c2)n1)NC(=O)c1cc([C@@H](C)O)[nH]n1 | – | human, fasted, plasma | oral, 300 mg darolutamide tablet, geometric mean | – | 277 ng/mL
Cc1cn(C(=O)c2c(-c3c(Cl)cc(Cl)cc3Cl)noc2C(C)(C)F)c2cccc(/C=C/C(=O)O)c12 | – | human patients | 700 mg bid, cycle 8 day 1 | – | 37200 ng/mL
N#Cc1cc(NC(=O)[C@H]2c3ccccc3C(=O)N(CC(F)(F)F)[C@@H]2c2cccnc2)ccc1F | – | human, plasma | oral, 75 mg, median | – | 178 ng/mL
NC[C@@]1(CC(=O)O)[C@@H]2CC[C@H]3C[C@@H]2[C@@H]1C3 | – | human, severe renal impairment, plasma | oral, 20 mg single dose, geometric mean | – | 438 ng/mL
Cc1cc(C)c(CNC(=O)c2cc(Cl)c3c(c2C)O[C@@](C)([C@H]2CC[C@H](N(C)C)CC2)O3)c(=O)[nH]1 | mean | healthy male humans, plasma | oral, 25 mg, day 11, together with: itraconazole | – | 336 ng/mL
C[C@H]1CN(C(=O)CC#N)[C@]12CCN(c1ncnc3[nH]ccc13)C2 | – | healthy human, plasma | oral, 6 mg single, mean | – | 54.8 ng/mL
COc1ccc([C@@H](O)c2cc(-c3ncnc4cc(N5CCOCC5)ccc34)c(F)cc2Cl)nn1 | – | human, plasma | oral, 100 mg twice daily, single dose, geometric mean | – | 392 ng/mL
COc1ccc2nc([S@@+]([O-])Cc3ncc(CO)c(OC)c3C)[nH]c2c1 | – | human, dried plasma spots | 5 mg racemic omeprazole, together with: fluvoxamine and voriconazole | – | 11.5 nM
CO[C@@H]1[C@H](N(C)C(=O)c2ccccc2)C[C@H]2O[C@]1(C)n1c3ccccc3c3c4c(c5c6ccccc6n2c5c31)C(=O)NC4 | – | human patients, consolidation therapy, plasma | oral, 50 mg twice daily, day 21, prior posaconazole, mean | – | 4330 ng/mL
CNC(=O)n1ccc2cc(Oc3ccnc(NC(=O)c4ccc(C5CCN(CCO)CC5)cc4)c3)c(OCCOC)cc21 | – | healthy human | dose not given, together with: rabeprazole | relative to: compound alone | no effect
N#CCC1CCN(c2nc(Nc3ccc(N4CCC(O)CC4)cc3)c3c(=O)[nH]ncc3n2)CC1 | – | human, plasma | oral, 20 mg once daily, day 15 | – | 82.9 ng/mL
CC#CC(=O)N1CCC[C@H]1c1nc(-c2ccc(C(=O)Nc3ccccn3)cc2)c2c(N)nccn12 | – | human, plasma | oral, 100 mg once daily dosing, together with: rifampicin 600 mg | – | 142 ng/mL

A few entries again:
Structure (SMILES) | assay | system | setting | scale | Cmax
C[C@H](CCC(=O)O)[C@H]1CC[C@H]2[C@@H]3CC[C@@H]4C[C@H](O)CC[C@]4(C)[C@H]3C[C@H](O)[C@]12C | – | human, plasma | oral, dose not given | relative to: untreated | 926 ± 251 nM
